Results from different studies.
Parts stem from different laboratories: compare values within a part only.

Series 1 — method: protein-binding microarray; molecule type: double-stranded DNA, one strand shown; sample: in vitro; concentration: 250 nM; setting: 60-bp whole probe; added: salmon DNA 0.4 mg/ml; reference: random background probes; reading: higher = stronger binding; all sequences stand within: GCCTAGCAC … GTCTTGATTCGCTTGACGCTGCTG
Target: Interferon regulatory factor 5, full length, phosphomimetic (IRF5, Homo sapiens, UniProt Q13568-2, residues 1-514, K96S/S451D/S453D/S456D/S462D)
| Sequence | log fluorescence [z-score] |
| --- | --- |
| TCACCTCTAACTTTCCAACTGTGCTAG | 0.504 |
| TCCTCTTTCTCTGCTACCCTCGTGCTA | 1.37 |
| TTAGGTTTCGGACTGGCTTAGTGCTAG | 5.37 |
| TTTATTTTCTGAATGCCCTCGTGCTAG | 2.13 |
| TTAGGTCTCGCTATCGGTTAGTGCTAG | 4.86 |
| GTGTTTCTCAGTTTATTTATGTGCTAG | 1.37 |
| TTCTTTATGCACTCTCTACATGTGCTA | 0.888 |
| TTAGAGTTCAGTTCCGATTAGTGCTAG | 0.849 |

Series 2 — method: protein binding microarray; molecule type: double-stranded DNA, one strand shown; sample: in vitro; concentration: not given; reference: not given; reading: higher = stronger binding
Target: Histone acetyltransferase KAT6A, winged helix 1, GST fusion (KAT6A, Homo sapiens, UniProt Q92794, residues 1-85)
Setting: 8-mer, flanks averaged, mean of 2 arrays, mostly near background
Target sequence (chain): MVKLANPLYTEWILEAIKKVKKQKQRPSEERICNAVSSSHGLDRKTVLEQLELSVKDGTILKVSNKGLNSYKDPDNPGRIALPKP
| Sequence | E-score |
| --- | --- |
| CTACCGTA | 0.143 |
| CTTATCTA | -0.0563 |
| AATGCGTG | 0.0362 |
| AATCTGAA | -0.203 |
| AAAGCCGT | 0.325 |
| ATTCAAGA | -0.226 |
| ATTGTTTC | 0.00751 |
| CGTCGCAC | 0.372 |
| CAAGCTAG | -0.223 |

Series 3 — method: RNA Bind-n-Seq; molecule type: RNA; sample: in vitro; concentration: 365 nM; reference: no-protein control; reading: higher = stronger binding
Target: RNA binding protein fox-1 homolog 2, RRM domain, GST-SBP tag (RBFOX2, Homo sapiens, UniProt O43251-10, residues 100-194)
Setting: natural RNA segment, single round, ends assumed
| Sequence | RBNS enrichment (R) |
| --- | --- |
| GGGAGUUCUACAGUCCGACGAUCUUGGGGUGCCUUCAUUUGCAUGCGUGUGCCCUGACCCCAAGAACCCCCAAAUUACUCACAAAUUAAUGAGAGAUGUGAUCCAAACAGGAUUUUCGUCCCUGCCCCAUCCCUGGAAUUCUCGGGUGCCAA | 8.97 |
| GGGAGUUCUACAGUCCGACGAUCGAAAGUAGCAGAUUAGUGCAAGGUGGCAUGCAUAUAAGGUUAACUGAGUGGGGUACGCUAAUUAUACUUUUUGUUGUGGAUAAAAAAUGCUUGUCAAUAGCCUUUUUCUAUGGAAUUCUCGGGUGCCAA | 3.95 |
| GGGAGUUCUACAGUCCGACGAUCUAUAUGGGGCUUUAGCAAGUUUGAGCAUAGGCUCUUUUUGCUGCCUGUGAGCAGUCCCUCUGGAAAGAAACAUGUGAGUAAGUGAGAGAGAGUGUGUGUGUAUGUGUGUGUGGAAUUCUCGGGUGCCAA | 9 |
| GGGAGUUCUACAGUCCGACGAUCUCAGAGCUGGGUUCAAAAAGAAAAUUCUAGUGUCUAUAUGGAGCACUUGGUUUGGGGGUUCAGGCUCCAGGAUCAAUUUAGAGGGAUCCUUGAACCCAGCCCCGUGAACAUGGAAUUCUCGGGUGCCAA | 0.493 |

Further values, each from its own experiment
| Substance | target | test | test system | setting | scale | endpoint | result |
| --- | --- | --- | --- | --- | --- | --- | --- |
| PhoQ, residues 284 288 289 292 302 303 AMDMFI | PhoP, residues 12 14 15 18 19 NHFRA (Escherichia coli, UniProt P23836) | Sort-seq, refers to: YFP reporter | E. coli | PhoQ-PhoP variant library, added: 10 µM Mg2+ | reference: high Mg2+ state, higher = stronger signaling | fold induction | 1.24 |
